Published values collected from several papers.
Organism: Enterococcus faecalis

CN1C(=O)[C@@H]2NC(=O)[C@@H]3NC(=O)[C@@H](c4ccc(O)cc4)NC(=O)[C@H](NC(=O)C(N)c4ccc(O)cc4)Cc4c[nH]c5cc(ccc45)-c4cc3cc(c4O)Oc3ccc(cc3)C[C@H]1C(=O)N[C@@H](C(=O)O)c1ccc(O)c(c1)Oc1ccc2cc1 (some centres unmarked) — MIC (brain heart infusion medium): 8 to 16 µg/mL
CC(C)[C@H](NC(=O)[C@H](CCCCN)NC(=O)[C@H](CCCNC(=N)N)NC(=O)[C@@H](NC(=O)[C@H](C)NC(=O)[C@H](CC(N)=O)NC(=O)[C@H](CCCNC(=N)N)NC(=O)[C@@H](NC(=O)[C@H](CCCCN)NC(=O)[C@H](CCCCN)NC(=O)[C@@H](NC(=O)[C@@H](NC(=O)[C@H](CCCNC(=N)N)NC(=O)[C@H](CCCNC(=N)N)NC(=O)[C@H](Cc1c[nH]c2ccccc12)NC(=O)[C@H](Cc1c[nH]c2ccccc12)NC(=O)CN)[C@@H](C)O)C(C)C)C(C)C)C(C)C)C(=O)O — MIC (clinical strain; 18 h, 37 °C): 16 µg/mL
CC[C@H](C)[C@H](NC(=O)[C@@H](Cc1ccccc1)NC)C(=O)N[C@@H](CO)C(=O)N[C@H](CCC(N)=O)C(=O)N[C@@H](C(=O)N[C@H](C(=O)OC[C@H](N)C(=O)N[C@H]1C(=O)N[C@@H](C)C(=O)N[C@@H](C2CCCCC2)C(=O)N[C@@H]([C@@H](C)CC)C(=O)O[C@H]1C)[C@@H](C)CC)[C@@H](C)CC — MIC (broth microdilution; ATCC 51299, vancomycin-resistant, brain heart infusion broth; 16 h, 37 °C): 0.5 µg/mL
CN1C(=O)[C@@H]2NC(=O)[C@@H]3NC(=O)[C@@H](c4ccc(O)cc4)NC(=O)[C@H](NC(=O)C(NCc4cc(C(F)(F)F)cc(C(F)(F)F)c4)c4ccc(O)cc4)Cc4c[nH]c5cc(ccc45)-c4cc3cc(c4O)Oc3ccc(cc3)C[C@H]1C(=O)N[C@@H](C(=O)O)c1ccc(O)c(c1)Oc1ccc2cc1 (some centres unmarked) — MIC (brain heart infusion medium): 8 µg/mL
O=C1c2ccccc2NC(c2ccc(O)c(O)c2)N1/N=C/c1ccc(O)c(O)c1 (centres unmarked) — MIC (broth microdilution; VRE 368, vancomycin-resistant, brain-heart infusion; 24 h): > 256 µg/mL
CN[C@@H]1[C@H](O)[C@H](NC)[C@H]2O[C@]3(O)[C@H](O[C@@H]2[C@H]1O)O[C@H](C)C[C@@]3(O)CNCc1ccc(Cl)cc1 — MIC (ATCC 33186): 6.3 to 12.5 µg/mL
O=C1c2ccccc2NC(c2ccccc2O)N1/N=C/c1ccccc1O (centres unmarked) — MIC (broth microdilution; VRE 368, vancomycin-resistant, brain-heart infusion; 24 h): > 256 µg/mL
CNc1nc(SC)nc2ccccc12 — MIC (microbial growth, broth dilution): > 64 µM
CN1C(=O)[C@@H]2NC(=O)[C@@H]3NC(=O)[C@@H](c4ccc(O)cc4)NC(=O)[C@H](NC(=O)C(NCc4cccc(O)c4O)c4ccc(O)cc4)Cc4c[nH]c5cc(ccc45)-c4cc3cc(c4O)Oc3ccc(cc3)C[C@H]1C(=O)N[C@@H](C(=O)O)c1ccc(O)c(c1)Oc1ccc2cc1 (some centres unmarked) — MIC (brain heart infusion medium): 8 to 16 µg/mL
c1cc2c(s1)CCOC21CCN(Cc2ccc3c(c2)OCCO3)CC1 — MIC (microbial growth, broth dilution): 64 µM
CNC(CC(C)C)C(=O)NC1C(=O)NC(CC(N)=O)C(=O)NC2C(=O)NC3C(=O)NC(C(=O)NC(C(=O)O)c4cc(O)cc(O)c4-c4cc3ccc4O)C(O)c3ccc(c(Cl)c3)Oc3cc2cc(c3OC2OC(CO)C(O)C(O)C2OC2CC(C)(NCc3ccc(-c4ccc(Cl)cc4)cc3)C(O)C(C)O2)Oc2ccc(cc2Cl)C1O (centres unmarked) — MIC (VanB ATCC 51299): 0.08 µg/mL

For quick reference, copied from above:
CC(C)[C@H](NC(=O)[C@H](CCCCN)NC(=O)[C@H](CCCNC(=N)N)NC(=O)[C@@H](NC(=O)[C@H](C)NC(=O)[C@H](CC(N)=O)NC(=O)[C@H](CCCNC(=N)N)NC(=O)[C@@H](NC(=O)[C@H](CCCCN)NC(=O)[C@H](CCCCN)NC(=O)[C@@H](NC(=O)[C@@H](NC(=O)[C@H](CCCNC(=N)N)NC(=O)[C@H](CCCNC(=N)N)NC(=O)[C@H](Cc1c[nH]c2ccccc12)NC(=O)[C@H](Cc1c[nH]c2ccccc12)NC(=O)CN)[C@@H](C)O)C(C)C)C(C)C)C(C)C)C(=O)O — MIC (clinical strain; 18 h, 37 °C): 16 µg/mL
